Published values gathered from unrelated publications.
Protocols differ between the studies behind these lines. Values joined by “and” are separate records of one study, mostly repeats; a detail may differ. Numbers after ± are the reported error.

Structure (SMILES) | test | test system | setting | scale | measurement | result
C=CCNc1c(O)cc2c(O)c1C[C@@H](C)C[C@H](OC)[C@H](O)[C@@H](C)/C=C(\C)[C@H](OC(N)=O)[C@@H](OC)/C=C\C=C(/C)C(=O)N2 |  | unresectable or metastatic sarcoma | intravenous, 90 mg/m^2, grade 3-4 lab change |  | patients with ALT increase | 0%
NC(=O)[C@H]1CCN(c2ncnc(N)c2F)C[C@@H]1N1CCC[C@@H](Nc2cc(Cl)cc(C(F)(F)F)c2)C1=O |  | B-cell malignancy patients | oral, 410 mg twice daily, dose |  | grade ≥3 hypocalcaemia | 0%
C=CC(=O)N1CC[C@H](n2nc(C#Cc3cc(OC)cc(OC)c3)c3c(N)ncnc32)C1 |  | human patients | oral, dose not given, QD regimen, adverse drug reaction, together with: any phosphate binder |  | decreased appetite, grade ≥3 | 5%
CO[C@H]1C[C@@H]2CC[C@@H](C)[C@@](O)(O2)C(=O)C(=O)N2CCCC[C@H]2C(=O)O[C@H]([C@H](C)C[C@@H]2CC[C@@H](OC(=O)NCCOCCOCCOCCOCCOCCOCCOCCOCCC(=O)N3CCc4cc(Cn5nc(-c6ccc7oc(N)nc7c6)c6c(N)ncnc65)ccc4C3)[C@H](OC)C2)C[C@@H](O)[C@H](C)/C=C(\C)[C@@H](O)[C@@H](OC)C(=O)[C@H](C)C[C@H](C)/C=C/C=C/C=C/1C |  | patients with advanced solid tumours | intravenous, 12 mg weekly, grade 3 or higher |  | vomiting incidence | 16.7%
CC(C)C[C@H](NC(=O)[C@H](CCCCN)NC(=O)OCC1c2ccccc2-c2ccccc21)C(=O)N[C@H](C(=O)N[C@@H](Cc1ccccc1)C(=O)N[C@@H](Cc1ccccc1)C(=O)N[C@@H](CCCCN)C(=O)NCC(=O)N[C@@H](Cc1ccccc1)C(=O)N[C@@H](C)C(=O)N[C@@H](Cc1c[nH]c2ccccc12)C(=O)N[C@@H](CC(N)=O)C(=O)N[C@H](C(=O)N[C@H]1CSSC[C@@H](C(=O)N[C@@H](Cc2c[nH]cn2)C(=O)N[C@@H](CCCNC(=N)N)C(=O)N[C@@H](CCCNC(=N)N)C(=O)N[C@@H](C)C(=O)N[C@@H](CC(N)=O)C(N)=O)NC(=O)[C@H](C(C)C)NC(=O)[C@H](CCCNC(=N)N)NC(=O)[C@H](C(C)C)NC(=O)CNC(=O)[C@H](CC(N)=O)NC(=O)[C@H](CCCNC(=N)N)NC(=O)[C@H](Cc2ccc(O)cc2)NC(=O)[C@H](C(C)C)NC1=O)C(C)C)C(C)C | HPLC | mouse mammary gland homogenate | 2560 µM, 24.00 h, 37 °C, 50 mg/mL tissue |  | remaining peptide | 54.1% and 49.4% and 51.3%
CN1CC[C@@H](c2c(O)cc(O)c3c(=O)cc(-c4ccc(C(F)(F)F)cc4Cl)oc23)[C@@H]1CO | item: Syncope | relapsed AML | oral, 100 mg, grade 3-4, intermittent dosing |  | patients with adverse event | 0%
CN1CCN(S(=O)(=O)c2cc([N+](=O)[O-])ccc2N(CCOS(C)(=O)=O)CCOS(C)(=O)=O)CC1 |  | NOD/SCID mouse, naive, blood | intraperitoneal, 18.8 mg/kg, week 2 |  | hemoglobin | 150 g/L and 160 g/L and 144 g/L and 156 g/L
CCc1ccc(CC/C=C/c2ccc3c(c2)C(=O)CC3)cc1 |  | Sprague-Dawley rat, female, serum | oral, 30 mg/kg/day, 14 days |  | total bilirubin | 1.07 µM
CC(=O)c1c(C)c2cnc(Nc3ccc(C4CCN(CCS(C)(=O)=O)CC4)cn3)nc2n(C2CCCC2)c1=O |  | human, plasma | oral, 75 mg twice daily, day 21, multiple doses, together with: letrozole |  | Cmax | 191 ng/mL
Clc1ccc(-c2ccccc2)cc1 |  | Sprague-Dawley rats, female, serum | inhalation, 23 µg/rat, 4 h after exposure |  | potassium | 5 ± 1 mmol/L
O=S(=O)(Nc1ccccc1)c1ccc(NC(=S)Nc2ccccc2)cc1 |  | male mice, heart | oral, 5 mg/kg daily 14 days | relative to: body weight | relative organ weight | 0.48%
C/C(=N\C#N)N(C)Cc1ccc(Cl)nc1 |  | soil | 0 days, nominal 1.1 |  | concentration | 0.65 mg/kg dry soil
C[C@]1(CO)Cc2ncn(-c3ccc(C#N)c(Cl)c3)c2C(=O)O1 |  | healthy Japanese adults, plasma | 20 mg single dose |  | half-life | 5.9 h
Cc1cc(C)c(CNC(=O)c2cc(Cl)c3c(c2C)O[C@@](C)([C@H]2CC[C@H](N(C)C)CC2)O3)c(=O)[nH]1 |  | relapsed/refractory NHL patients | dose not given, all TEAEs, safety set |  | grade 5 any TEAE incidence | 0%

Excerpt of the above:
Structure (SMILES) | test | test system | setting | scale | measurement | result
CC(C)C[C@H](NC(=O)[C@H](CCCCN)NC(=O)OCC1c2ccccc2-c2ccccc21)C(=O)N[C@H](C(=O)N[C@@H](Cc1ccccc1)C(=O)N[C@@H](Cc1ccccc1)C(=O)N[C@@H](CCCCN)C(=O)NCC(=O)N[C@@H](Cc1ccccc1)C(=O)N[C@@H](C)C(=O)N[C@@H](Cc1c[nH]c2ccccc12)C(=O)N[C@@H](CC(N)=O)C(=O)N[C@H](C(=O)N[C@H]1CSSC[C@@H](C(=O)N[C@@H](Cc2c[nH]cn2)C(=O)N[C@@H](CCCNC(=N)N)C(=O)N[C@@H](CCCNC(=N)N)C(=O)N[C@@H](C)C(=O)N[C@@H](CC(N)=O)C(N)=O)NC(=O)[C@H](C(C)C)NC(=O)[C@H](CCCNC(=N)N)NC(=O)[C@H](C(C)C)NC(=O)CNC(=O)[C@H](CC(N)=O)NC(=O)[C@H](CCCNC(=N)N)NC(=O)[C@H](Cc2ccc(O)cc2)NC(=O)[C@H](C(C)C)NC1=O)C(C)C)C(C)C | HPLC | mouse mammary gland homogenate | 2560 µM, 24.00 h, 37 °C, 50 mg/mL tissue |  | remaining peptide | 54.1% and 49.4% and 51.3%
Clc1ccc(-c2ccccc2)cc1 |  | Sprague-Dawley rats, female, serum | inhalation, 23 µg/rat, 4 h after exposure |  | potassium | 5 ± 1 mmol/L
